Measurements gathered from unrelated publications.
A part holds a random share of what one study measured. Positions count from the first letter of the parent shown.

Set 1
Target: Ras GTPase-activating protein-binding protein 1, full length (G3BP1, Homo sapiens, UniProt Q13283)
Chain of UniProt Q13283 (whole entry, looked up): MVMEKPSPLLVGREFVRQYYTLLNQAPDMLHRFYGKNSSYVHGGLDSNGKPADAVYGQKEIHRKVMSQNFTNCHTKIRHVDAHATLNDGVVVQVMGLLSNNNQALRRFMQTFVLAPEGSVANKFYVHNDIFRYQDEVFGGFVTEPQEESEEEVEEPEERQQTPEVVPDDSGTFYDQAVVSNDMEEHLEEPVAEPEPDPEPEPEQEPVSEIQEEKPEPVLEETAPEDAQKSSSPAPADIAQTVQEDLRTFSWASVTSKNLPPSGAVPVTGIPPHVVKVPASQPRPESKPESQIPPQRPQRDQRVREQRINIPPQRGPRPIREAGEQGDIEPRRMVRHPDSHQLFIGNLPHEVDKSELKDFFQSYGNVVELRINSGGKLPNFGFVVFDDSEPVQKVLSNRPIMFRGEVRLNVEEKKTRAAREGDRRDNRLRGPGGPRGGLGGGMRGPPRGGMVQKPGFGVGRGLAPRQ
Method: RNA Bind-n-Seq
Form: RNA
Sample: in vitro
Concentration: 200 nM
Setting: whole 134-nt RNA, ends assumed
Together with: 150 mM KCl
Relative to: input library
Reading: higher = stronger binding
| Sequence | log2 enrichment |
| --- | --- |
| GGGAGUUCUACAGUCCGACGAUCAGUCCUGUGCUACACAUCGUAUGUACCGAAUCGGGCCCCCGGCCCCCGGCCCCCGGGGAAAGUAUUAUGUUACGCCGUUCGGAUCUGCACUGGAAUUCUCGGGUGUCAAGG | -0.606 |
| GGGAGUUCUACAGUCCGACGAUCAAGUCCUGUGCUACACAUCGUAUGUACCGAAUCGGAAAGGAAAAAAAGGAAAAAGGAAAGUAUUAUGUUACGCCGUUCGGAUCUGCACUUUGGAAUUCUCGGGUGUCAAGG | -0.939 |
| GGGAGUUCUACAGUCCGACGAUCAUCAUUUCAUUUUUAUAAUUAUACAUUAGACAUUGGCACUUGUGUAAAACUGUCCCUGCAGAUUGAGCAGGAAGUAAAAACAAAUGGAAAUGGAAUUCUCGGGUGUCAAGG | -0.00105 |
| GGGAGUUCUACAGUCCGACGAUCGUCCUGUGCUACACAUCGUAUGUACCGAAUCGGGUUUUUUUGGGAAAAAGGGAAAGGGAAAGUAUUAUGUUACGCCGUUCGGAUCUGCACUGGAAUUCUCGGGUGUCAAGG | -0.58 |
| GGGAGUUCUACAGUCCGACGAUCGUCCUGUGCUACACAUCGUAUGUACCGAAUCGGGAGGGAAAAAAAGGGAAAAAAAGGGAAAGUAUUAUGUUACGCCGUUCGGAUCUGCACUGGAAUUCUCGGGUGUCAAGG | -0.194 |
| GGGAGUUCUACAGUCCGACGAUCUGGCCCUGGUGGCAUGCGGGGAGGAAGAGGUGGCCUCAUGGAUCGUGGUGGUCCCGGUGGAAUGUUCAGAGGUAGCCGUGGUGGAGACAGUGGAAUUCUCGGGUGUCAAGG | 0.173 |

Set 2
Target: RNA binding protein fox-1 homolog 2, RRM domain, GST-SBP tag (RBFOX2, Homo sapiens, UniProt O43251-10, residues 100-194)
Method: RNA Bind-n-Seq
Form: RNA
Sample: in vitro
Concentration: 365 nM
Setting: natural RNA segment, single round, ends assumed
Relative to: no-protein control
Reading: higher = stronger binding
Residues (chain): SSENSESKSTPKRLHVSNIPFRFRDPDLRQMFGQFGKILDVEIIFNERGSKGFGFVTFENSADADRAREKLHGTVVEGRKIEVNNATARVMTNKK
| Sequence | RBNS enrichment (R) |
| --- | --- |
| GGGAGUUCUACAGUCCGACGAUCGACUGUGUGAUUGAGCCCAAGAAGCCAGAGACUAUGCAUUUGGCCGCUGCCAAGGGGGGGAUUGCUCACUUCACGUGCAGUUUGUCCAGUUACUCAGCCCUUUUUAUUUCUGGAAUUCUCGGGUGCCAA | 0.518 |
| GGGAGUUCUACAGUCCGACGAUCAUAGAGUGGUAUUUAGAAAAUAAAUUGCAUUGCAAAGCUCUUAUCGGCUCAUAUGAGAGAGCAGGUUCCUGCCCUUGAAAAUGCCGGUAAGCUAUAGCAUAUGUUUUUUAUGGAAUUCUCGGGUGCCAA | 0.32 |
| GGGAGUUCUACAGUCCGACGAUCCUGUCCAGAGGUUUUUAAAACUGGUGCAUUCACAGCAAAAAGGGAUUCUGUAGCUUUAACUUGUAAACCACAUCUUUUUUGCACUUUUUUUUAUAAAGCAAAAACGUGCCUGGAAUUCUCGGGUGCCAA | 1.16 |
| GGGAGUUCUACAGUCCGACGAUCAAGCCCUAAAAUUUCAAACACUGUUUGAAAGAAGAGGUGGGGGCCGGGUGCCGUGGCUCAUGCCUGUCAUCCCAGCAUUUGGGAGGCUGAGGCAGGCAGAUCACCUGAGGUGGAAUUCUCGGGUGCCAA | 0.295 |
| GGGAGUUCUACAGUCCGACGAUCCAUCUAAGGUGGGGGCCAUGGCCGUGAAUGUGGAUGACACUUGUUCUCCUGACCCGUGGUGUUGCAGUCUGUUGUCACCAGCCUUGUUUUAGUGUGUAUAUAUGUCGCCCUGGAAUUCUCGGGUGCCAA | 2.44 |
| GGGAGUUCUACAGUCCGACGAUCUGUGUGUAAAAUGUCAUUUAAAGUGUUUUCAAAUGCAUUGCUCUUACAAUUUAUUUUCCUUUAACUCUUCUAUGAUAUUUAAAGCGUGCAUCUGCCACAUUGAUGAUUAAUGGAAUUCUCGGGUGCCAA | 0.524 |
| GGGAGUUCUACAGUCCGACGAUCUAUUGCAGGUAUCACAGCCUAAAGAAAUUAUCUUUUUGCAAAAGAAAUAUUAAAUGAUUUAGCAGUCUCCACGUGUGUUAAUGUUUCAAACGUGUAUCAUAAUGUGUAUAUGGAAUUCUCGGGUGCCAA | 0.415 |
| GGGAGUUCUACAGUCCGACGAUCAAGAGCCUUUUCAAAUACAGAUCCAGAAGUCUGAUUUGUGCCAACCUUAGGAUGACCUAAGGGGAGGACCCCGUACCCCAUCACCGGAGAGCCUGCAUUUCCCUGCUAUUUGGAAUUCUCGGGUGCCAA | 0.458 |

Set 3
Target: Myc proto-oncogene protein, bHLH-zipper, MAX partner unstated (MYC, Homo sapiens, UniProt P01106, residues 368-449)
Chain of UniProt P01106 (368-449, looked up): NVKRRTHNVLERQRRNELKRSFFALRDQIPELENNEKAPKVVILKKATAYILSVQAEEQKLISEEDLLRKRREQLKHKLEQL
Method: protein-binding microarray
Form: double-stranded DNA, one strand shown
Sample: in vitro
Concentration: not given
Setting: k-mer, scored over probes, only values ≥0.25
Reading: higher = stronger binding
| Sequence | E-score |
| --- | --- |
| ACGGTGTG | 0.291 |
| AACCTCGT | 0.277 |
| ATGCGTAG | 0.264 |
| ACGCGTCA | 0.303 |
| AATGCACG | 0.332 |
| CATGCAAA | 0.259 |
| ATGGGGGC | 0.265 |
| CATAGCAC | 0.257 |
| TAGCGTGA | 0.267 |
| AACCATGT | 0.303 |
| CGACATGC | 0.367 |
| ACGCGACG | 0.307 |
| CGTGGTCC | 0.399 |
| ATCATGTG | 0.387 |
| CAAACACG | 0.344 |
| ATGCAGCG | 0.268 |

Set 4
Target: CCND1, cyclin fold, Cln2 fusion (human)
Method: yeast growth competition, sequencing
Sample: yeast
Setting: strong parent motif
Relative to: not given
Reading: higher = stronger binding
Parent: CDKN1A docking peptide (human); SKACRRLFGPVDS; partner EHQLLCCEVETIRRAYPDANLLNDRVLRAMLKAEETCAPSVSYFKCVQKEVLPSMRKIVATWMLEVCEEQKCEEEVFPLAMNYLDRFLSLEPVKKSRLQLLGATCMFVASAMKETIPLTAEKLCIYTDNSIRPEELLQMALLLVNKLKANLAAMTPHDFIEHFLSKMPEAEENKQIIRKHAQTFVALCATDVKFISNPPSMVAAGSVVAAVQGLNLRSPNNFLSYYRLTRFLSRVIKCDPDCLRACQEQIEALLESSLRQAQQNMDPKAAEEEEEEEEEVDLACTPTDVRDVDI
| Substitution | normalised enrichment score |
| --- | --- |
| R5C | 0.645 |
| A3V | 1.62 |
| G9K | 1.21 |
| D12T | 1.89 |
| D12N | 2.07 |
| V11L | 2.5 |
| P10R | 1.29 |
| C4W | 0.883 |
| G9S | 3.33 |
| C4M | 0.993 |

For quick reference, copied from above (set 3):
| Sequence | E-score |
| --- | --- |
| ATGCGTAG | 0.264 |
| ACGCGTCA | 0.303 |
| AATGCACG | 0.332 |
| CATGCAAA | 0.259 |
| ATGGGGGC | 0.265 |
| CATAGCAC | 0.257 |
